Measured values gathered from unrelated publications.
Protocols differ between the studies behind these lines. Numbers after ± are the reported error.

| SMILES | assay | test system | conditions | scale | quantity | result |
| --- | --- | --- | --- | --- | --- | --- |
| Cc1ccccc1/N=N/c1ccc(/N=N/c2c(O)ccc3ccccc23)c(C)c1 | – | rat whole blood QC samples | 16.0 µg/L, 2 h, room temperature, short-term stability | – | measured concentration | 15.9 µg/L |
| CC(=O)[CH](C(C)=O)[Pt-2]1([S+](C)C)[O]C(C)=CC(C)=[O+]1 (stereo not drawn) | item: platinum | rat, plasma | intravenous, dose not given | – | AUC(0-24 h) | 868 µg·h/mL |
| COc1cnc2cccc(N3CCc4c(cc(Cn5ccnc5)cc4-c4cn(C)nc4C(F)(F)F)C3=O)c2c1 | – | mouse whole blood | 1 µM, 4 h, pH 7.4 | – | whole blood protein binding | 97.8 ± 0.2% |
| COc1ccc(NC(=O)[C@H](CCCCN)NC(=O)c2cc(NC(=O)[C@H](CCCCN)NC(=O)c3cc(NC(=O)[C@H](CCCCN)NC(=O)c4cc(NC(=O)[C@@H](N)CCCCN)ccc4OC)ccc3OC)ccc2OC)cc1C(=O)NCCC(=O)O | ITC heats of dilution | TBS | pH 7.4, 25 °C, hexamer to monomer | – | enthalpy of dissociation | 13.8 kcal/mol |
| O=C([O-])CN1CCN(CC(=O)[O-])CCN(CC(=O)NCC2CCC(C(=O)NC(Cc3ccc4ccccc4c3)C(=O)NCCCCC(NC(=O)NC(CCC(=O)O)C(=O)O)C(=O)O)CC2)CCN(CC(=O)[O-])CC1.[44Sc+3] (stereo not drawn) | transchelation stability | – | 1 h, 37 °C, added: DTPA 10 mM | – | intact complex | 97.7 ± 0.5% |
| Brc1ccccc1-c1nnc(CSc2nnnn2-c2ccccc2)o1 | – | male C57BL/6 mouse, brain | intraperitoneal, 10 mg/kg, 4 h | – | concentration | 56 nM |
| Cn1c(=O)oc2ccc(-c3ccc(CC(C#N)NC(=O)C4CNCCCO4)c(F)c3)cc21 (stereo not drawn) | – | human | oral, 20 mg once daily, treatment-related AE, multiple ascending dose | – | bilirubin increased incidence | 0% |
| CCCC[C@@H]1NC(=O)[C@@H](NC(=O)[C@H](CCC(=O)O)NC(=O)CNC(=O)CN2CCN(CC(=O)O)CCN(CC(=O)O)CCN(CC(=O)O)CC2)CCCCNC(=O)C[C@@H](C(N)=O)NC(=O)[C@H](C(C)C)NC(=O)[C@@H]2CCCN2C(=O)[C@H](CCCNC(=N)N)NC(=O)CNC(=O)[C@H](Cc2c[nH]c3ccccc23)NC(=O)[C@H](CCCNC(=N)N)NC(=O)[C@@H](Cc2ccccc2)NC(=O)[C@H](Cc2c[nH]cn2)NC(=O)[C@H](CCC(=O)O)NC1=O [gallium-67 labelled] | – | C57 mice with B16/F1 melanoma, heart | intravenous, 24 h | – | tissue uptake | 0.14 ± 0.13 %ID/g |
| CO[C@H]1/C=C/O[C@@]2(C)Oc3c(C)c(O)c4c(c3C2=O)C2=NC3(CCN(CC(C)C)CC3)NC2=C(NC(=O)/C(C)=C\C=C\[C@H](C)[C@H](O)[C@@H](C)[C@@H](O)[C@@H](C)[C@H](OC(=O)c2cccnc2)[C@@H]1C)C4=O | – | CD-1 mice | oral, 10 mg/kg | reference: rifabutin | fAUC/MIC fold higher | 128 fold |
| CC(C)(C)c1ccc(O)c(C(=O)Nc2ccc(CN)cc2)c1 | – | rat liver microsomes | 1 µM, added: NADPH | – | t1/2 | 1.05 h |
| CC(C)[C@H](NC(=O)CNC(=O)[C@H](CCC(N)=O)NC(=O)[C@H](C)N)C(=O)O | LC-MS/MS | human, plasma | intravenous, 20 mg/kg three times daily, day 1, first dose, 10 min infusion, geometric mean | – | AUC(0-inf) | 0.506 µg·h/mL |
| NC12CNCCNCC(NCc3ccc(CNC(=O)CCCC(=O)NCc4ccc(-c5nncnn5)cc4)cc3)(CNCCNC1)CNCCNC2.[64Cu+2] | OLINDA dosimetry | upper large intestine wall | pretargeting, 120-h interval | – | mean absorbed dose | 0.0355 rad/mCi |
| C=C(c1ncc(C(=O)O)cn1)c1cc2c(cc1C)C(C)(C)CCC2(C)C | – | Sprague-Dawley rat, male | oral, 100 mg/kg, 24 h, sesame oil vehicle | – | blood triglycerides | 193 ± 77.3 mg/dL |
| CC(=O)N[C@H](CC(=O)O)C(=O)N[C@H](Cc1c[nH]c2ccccc12)C(=O)N[C@H](Cc1ccccc1)C(=O)N[C@H](CCCCN)C(=O)N[C@H](C)C(=O)N[C@H](Cc1ccccc1)C(=O)N[C@H](Cc1ccc(O)cc1)C(=O)N[C@H](CC(=O)O)C(=O)N[C@H](CCCCN)C(=O)N[C@@H](C(=O)N[C@H](C)C(=O)N[C@H](CCC(=O)O)C(=O)N[C@H](CCCCN)C(=O)N[C@H](Cc1ccccc1)C(=O)N[C@H](CCCCN)C(=O)N[C@H](CCC(=O)O)C(=O)N[C@H](C)C(=O)N[C@H](Cc1ccccc1)C(N)=O)C(C)C | – | statin-treated high-risk CHD patients, both sexes, plasma | oral, 100 mg daily, day 13, 0-8 h, mean, undetectable set to 0 | – | Cmax | 2.27 ng/mL |
| Cc1ccc(-c2ccc(-c3cc4sccc4o3)cn2)nc1 | TCSPC | acetonitrile | zinc-free ligand | – | radiative decay rate constant | 0.46 ns⁻¹ |

For quick reference, copied from above:
| SMILES | assay | test system | conditions | scale | quantity | result |
| --- | --- | --- | --- | --- | --- | --- |
| CC(C)(C)c1ccc(O)c(C(=O)Nc2ccc(CN)cc2)c1 | – | rat liver microsomes | 1 µM, added: NADPH | – | t1/2 | 1.05 h |
| CC(C)[C@H](NC(=O)CNC(=O)[C@H](CCC(N)=O)NC(=O)[C@H](C)N)C(=O)O | LC-MS/MS | human, plasma | intravenous, 20 mg/kg three times daily, day 1, first dose, 10 min infusion, geometric mean | – | AUC(0-inf) | 0.506 µg·h/mL |
